Experimental data gathered from unrelated publications.
Each line is one published result; not all experiments were run side by side. ± gives the spread as reported.
Fibroin-modulator-binding protein-1: Fibroin-modulator-binding protein-1 99-193 (Bombyx mori, UniProt Q5FBS0)

Molecule | target or system | assay | test system | conditions | how to read | quantity | result
ACACACACACAC (dsDNA) | Fibroin-modulator-binding protein-1 | ITC | double-stranded DNA, one strand shown |  |  | Kd | 3880 ± 431 nM
GGWVEKETYY | human SCRIB PDZ3-4 tandem (MBP fusion) | automated holdup | peptide, crude extract | concentration not given, uncorrected, unit not given | relative to: biotin control resin, higher = stronger binding | binding intensity | 0.0402
ATCCATCCATCC (dsDNA) | Fibroin-modulator-binding protein-1 | ITC | double-stranded DNA, one strand shown |  |  | Kd | 2040 ± 201 nM
PKRSFIESNV | human SCRIB PDZ3-4 tandem (MBP fusion) | automated holdup | peptide, crude extract | concentration not given, uncorrected, unit not given | relative to: biotin control resin, higher = stronger binding | binding intensity | 0.957
GLLQWITQV | Jurkat T cells expressing 1G4 TCR | NFAT-eGFP reporter, fluorescence microscopy | peptide | concentration not given, HLA-A*02:01 NY-ESO system |  | reporter activation | 25.5%
caspofungin |  |  | adult ICU patients, mITT, serum | dose not given, Follow-up |  | albumin | 32.4 g/L
GSGAGRETEV | human SCRIB PDZ3-4 tandem (MBP fusion) | automated holdup | peptide, crude extract | concentration not given, corrected by standard peak, unit not given | relative to: biotin control resin, higher = stronger binding | binding intensity | 0.974
LMPFGSLLDY | HLA class I histocompatibility antigen, A alpha chain, allele A*01:01 (Homo sapiens, UniProt P04439) | conformational ELISA | peptide | concentration not given | relative to: positive control peptide, direction not given | binding score | 70.2%
NLLQWITQV | Jurkat T cells expressing 1G4 TCR | NFAT-eGFP reporter, flow cytometry | peptide | concentration not given, HLA-A*02:01 NY-ESO system |  | reporter activation | 83.1%
insulin degludec |  |  | human | subcutaneous, 0.4 IU/kg, 3 FC level, single dose, reference formulation |  | AUC0−∞ | 630 ± 79 ng·h/mL
SVWLRKETRV | human MAGI1-2/6 PDZ construct (MBP fusion) | automated holdup | peptide, crude extract | concentration not given, uncorrected, unit not given | relative to: biotin control resin, higher = stronger binding | binding intensity | 0.908
ITQLMPFGSLL | HLA class I histocompatibility antigen, A alpha chain, allele A*24:02 (Homo sapiens, UniProt P04439) | conformational ELISA | peptide | concentration not given | relative to: positive control peptide, direction not given | binding score | 5.5%
FKBP12 |  | co-immunoprecipitation | human RBC cytosol | unit not given, together with: Band 3 peptide 1-56 bait | relative to: negative control | co-IP enrichment | 0
GLMQWVSQV | Jurkat T cells expressing 1G4 TCR | NFAT-eGFP reporter, flow cytometry | peptide | concentration not given, HLA-A*02:01 NY-ESO system |  | reporter activation | 36.7%
EKPIDSETKM | human MAGI1-2/6 PDZ construct (MBP fusion) | surface plasmon resonance | peptide | concentration not given | higher = stronger binding | normalised SPR binding response | 0 normalised RU
human LDL receptor |  | co-immunoprecipitation | human RBC membrane | unit not given, together with: Band 3 peptide 1-56 bait | relative to: negative control | co-IP enrichment | 0
6-carboxyfluorescein | SLCO2A1 (Homo sapiens, UniProt Q92959, W565F) | compound uptake, substrate | HEK293F expressing SLCO2A1 W565F | 50 µM | relative to: wild type | uptake | 36.9%
GLLQWVTQV | Jurkat T cells expressing 1G4 TCR | NFAT-eGFP reporter, fluorescence microscopy | peptide | concentration not given, HLA-A*02:01 NY-ESO system |  | reporter activation | 27.4%
colistin | Klebsiella pneumoniae | broth microdilution | clinical isolate RKI-No_461/16 |  |  | MIC | 32 µg/mL
Peginesatide | UT7/EPO | tyrosine phosphorylation, LC-MS/MS phosphoproteomics, trypsin, refers to: ADD2 tyrosine 440 |  | 10 nM, 15 min, together with: 10 U/mL EPO | relative to: vehicle | phosphorylation level | 8.3 fold
MTVCNASQRQAHAQATAVSL | Calu-3 | phage binding | peptide |  | relative to: targeting over control phage | selectivity ratio | 1.6 ± 1.1
human alpha-1-acid glycoprotein 1 |  | co-immunoprecipitation | human RBC cytosol | no crosslinker, unit not given, together with: Band 3 peptide 1-56 bait | relative to: negative control | co-IP enrichment | 0
GSGAGKETEC | human MAGI1-2/6 PDZ construct (MBP fusion) | automated holdup | peptide, purified PDZ protein | concentration not given, unit not given | relative to: biotin control resin, higher = stronger binding | binding intensity | -0.224
human GAPDH |  | co-immunoprecipitation | human RBC cytosol | DMTMM crosslinker, unit not given, together with: Band 3 peptide 1-56 bait | relative to: negative control | co-IP enrichment | 909
GLFHWVYLV | Jurkat T cells expressing 1G4 TCR | NFAT-eGFP reporter, fluorescence microscopy | peptide | concentration not given, HLA-A*02:01 NY-ESO system |  | reporter activation | 0.019%
epoetin alfa | UT7/EPO | microarray, refers to: PHLDA1 (probe 217997_at) |  | 5 U/mL, 90 min, together with: SCF 10 nM | relative to: vehicle | mRNA level | 10.1 fold

A few entries again:
Molecule | target or system | assay | test system | conditions | how to read | quantity | result
GSGAGRETEV | human SCRIB PDZ3-4 tandem (MBP fusion) | automated holdup | peptide, crude extract | concentration not given, corrected by standard peak, unit not given | relative to: biotin control resin, higher = stronger binding | binding intensity | 0.974
insulin degludec |  |  | human | subcutaneous, 0.4 IU/kg, 3 FC level, single dose, reference formulation |  | AUC0−∞ | 630 ± 79 ng·h/mL
human alpha-1-acid glycoprotein 1 |  | co-immunoprecipitation | human RBC cytosol | no crosslinker, unit not given, together with: Band 3 peptide 1-56 bait | relative to: negative control | co-IP enrichment | 0
